Assay results collected from several papers.
Several values in a cell are separate wells, animals, samples, runs or records. ± marks the error that the study gave.

SMILES	assay	system	setting	how to read	quantity	value
Cc1ccc(N(O)/N=N/c2ccc(S(=O)(=O)Nc3nccs3)cc2)cc1	DPPH scavenging, absorbance	–	240 µg/mL	–	inhibition	32.1%
COc1cc(O)ccc1CCC(c1ccc(O)cc1)c1cc2c(c(C)c1O)OC(c1ccc(O)cc1)CC2 (mixture of isomers)	measured: 4-HDHA	human whole blood	3 µM, together with: Escherichia coli	–	amount	79 ± 32 pg/mL blood
COC1OC(C)C(O)C(OC2OC(C)C(O)C(OC3OC(C)C(O)C(OC4OC(C)C(O)C(OC5OC(C)C(O)C(OC6OC(C)C(O)C(OC7OC(C)C(O)C(OC8OC(C)C(O)C(OC9OC(C)C(O)C(OS(=O)(=O)O)C9OS(=O)(=O)O)C8OS(=O)(=O)O)C7OS(=O)(=O)O)C6OS(=O)(=O)O)C5OS(=O)(=O)O)C4OS(=O)(=O)O)C3OS(=O)(=O)O)C2OS(=O)(=O)O)C1OS(=O)(=O)O (stereo not shown)	–	human plasma	128 µg/mL	–	thrombin time	9.6 ± 0.4 s
COc1ccc(C(=O)CCc2cc(C(CCc3ccc(O)cc3OC)c3ccc(O)cc3)c(O)cc2OC)cc1 (racemic)	–	human blood	10 µM, together with: A23187	–	PGE2 level	44 ± 14 pg/mL
Cc1[nH]nc2c1N=C(c1ccccc1Cl)c1cnc(N3CCOCC3)cc1N2	–	mouse sample I TNBC PDX	oral, 15 mg/kg, 120 h, 5 days per week	–	tumour growth inhibition	94%
CN1CCC[C@]1(C)/C=C/S(=O)(=O)NC(=O)Nc1c2c(cc3c1CCC3)CCC2	–	human, whole blood ex vivo	50 mg single dose, 24 h, single ascending dose, together with: LPS and ATP	–	IL-18 inhibition	113%
COC(=O)C1CN1S(=O)(=O)c1ccc2cc(C)ccc2c1 (stereo not shown)	–	mouse, Lewis lung carcinoma	ip, 100 mg/kg, 264 h	–	tumour volume	352 mm3
COC1OC(C)C(OC2OC(C)C(OS(=O)(=O)O)C(OC3OC(C)C(OC4OC(C)C(OS(=O)(=O)O)C(OC5OC(C)C(OC6OC(C)C(OS(=O)(=O)O)C(OS(=O)(=O)O)C6O)C(OS(=O)(=O)O)C5O)C4O)C(OS(=O)(=O)O)C3O)C2O)C(OS(=O)(=O)O)C1O (stereo not shown)	–	human plasma	128 µg/mL	–	thrombin time	10.2 ± 0.1 s
COc1cc2c(NC3CCN(C(C)C)CC3)cc(N3CCOCC3)nc2cc1OCCCN1CCCC1	TMT quantitative proteomics, measured: LDHB	5xFAD mice, hippocampus	dose not given	–	normalised protein abundance	0.00155 and -0.0227 and -0.00398 and -0.0291 and -0.0449 and -0.0434 and 0.00999 and 0.00874
CC(=O)[O-].O.O.O.O.[Ni+2].[O-]c1ccc(Br)cc1C=NCCN1CCOCC1	hydroxyl radical scavenging	–	160 µM	–	inhibition	38.8%
COC1OC(C)C(OS(=O)(=O)O)C(OC2OC(C)C(OS(=O)(=O)O)C(OC3OC(C)C(OS(=O)(=O)O)C(OC4OC(C)C(OS(=O)(=O)O)C(OC5OC(C)C(OS(=O)(=O)O)C(OC6OC(C)C(OS(=O)(=O)O)C(OC7OC(C)C(OS(=O)(=O)O)C(OC8OC(C)C(OS(=O)(=O)O)C(OC9OC(C)C(OS(=O)(=O)O)C(OC%10OC(C)C(OS(=O)(=O)O)C(OS(=O)(=O)O)C%10O)C9O)C8O)C7O)C6O)C5O)C4O)C3O)C2O)C1O (stereo not shown)	–	human plasma	128 µg/mL	–	thrombin time	9.2 s
COC1CN([C@H]2CC[C@H]([C@@]3(C)Oc4c(Cl)cc(C(=O)NCc5c(SC)cc(C)[nH]c5=O)c(C)c4O3)CC2)C1	RNA-seq, measured: PHLDA1 mouse homolog	mouse, HT-1376 xenograft, whole blood	dose not given	reference: vehicle	log2 fold change	0.451
COC1OC(C)C(OC2OC(C)C(O)C(OC3OC(C)C(OC4OC(C)C(O)C(OC5OC(C)C(OC6OC(C)C(O)C(OC7OC(C)C(OC8OC(C)C(O)C(OC9OC(C)C(OC%10OC(C)C(O)C(OC%11OC(C)C(O)C(OS(=O)(=O)O)C%11OS(=O)(=O)O)C%10OS(=O)(=O)O)C(OS(=O)(=O)O)C9OS(=O)(=O)O)C8OS(=O)(=O)O)C(OS(=O)(=O)O)C7OS(=O)(=O)O)C6OS(=O)(=O)O)C(OS(=O)(=O)O)C5OS(=O)(=O)O)C4OS(=O)(=O)O)C(OS(=O)(=O)O)C3OS(=O)(=O)O)C2OS(=O)(=O)O)C(OS(=O)(=O)O)C1OS(=O)(=O)O (stereo not shown)	–	human plasma	128 µg/mL	–	thrombin time	9.2 s
O=C(N[C@@H](Cc1coc2ccccc12)B(O)O)[C@@H]1C[C@H]2CC[C@@H]1O2	tumour growth	MM1.S, mouse, MM1.S multiple myeloma xenograft	oral, 10 mg/kg daily	–	T/C	-82%
COc1cc(N2CCN(C(=O)C3CCCN3)CC2)ccc1Nc1ncc(Cl)c(Nc2ccccc2P(C)(C)=O)n1 (stereo not shown)	–	nude mice, NCI-H3122 xenograft	intraperitoneal, 10 mg/kg every other day, day 9	–	tumour volume	61.4 mm3 and 53.1 mm3 and 59.9 mm3 and 50.8 mm3 and 92.6 mm3
COC1OC(C)C(OS(=O)(=O)O)C(OC2OC(C)C(OS(=O)(=O)O)C(OC3OC(C)C(OS(=O)(=O)O)C(OC4OC(C)C(OS(=O)(=O)O)C(OC5OC(C)C(OS(=O)(=O)O)C(OC6OC(C)C(OS(=O)(=O)O)C(OS(=O)(=O)O)C6OS(=O)(=O)O)C5OS(=O)(=O)O)C4OS(=O)(=O)O)C3OS(=O)(=O)O)C2OS(=O)(=O)O)C1OS(=O)(=O)O (stereo not shown)	–	human plasma	128 µg/mL	–	thrombin time	10.1 ± 1 s

Some of these lines once more:
SMILES	assay	system	setting	how to read	quantity	value
COC1OC(C)C(OC2OC(C)C(O)C(OC3OC(C)C(OC4OC(C)C(O)C(OC5OC(C)C(OC6OC(C)C(O)C(OC7OC(C)C(OC8OC(C)C(O)C(OC9OC(C)C(OC%10OC(C)C(O)C(OC%11OC(C)C(O)C(OS(=O)(=O)O)C%11OS(=O)(=O)O)C%10OS(=O)(=O)O)C(OS(=O)(=O)O)C9OS(=O)(=O)O)C8OS(=O)(=O)O)C(OS(=O)(=O)O)C7OS(=O)(=O)O)C6OS(=O)(=O)O)C(OS(=O)(=O)O)C5OS(=O)(=O)O)C4OS(=O)(=O)O)C(OS(=O)(=O)O)C3OS(=O)(=O)O)C2OS(=O)(=O)O)C(OS(=O)(=O)O)C1OS(=O)(=O)O (stereo not shown)	–	human plasma	128 µg/mL	–	thrombin time	9.2 s
O=C(N[C@@H](Cc1coc2ccccc12)B(O)O)[C@@H]1C[C@H]2CC[C@@H]1O2	tumour growth	MM1.S, mouse, MM1.S multiple myeloma xenograft	oral, 10 mg/kg daily	–	T/C	-82%
